Measurements gathered from unrelated publications.
Each numbered part is a random draw from the data of one study; scales do not carry over between parts. Changes are numbered by the printed parent chain.

Study 1 — target: CCNB2, cyclin fold, Cln2 fusion (human); technique: yeast growth competition, sequencing; sample: yeast; notes: weak parent motif; baseline: not given; reading: higher = stronger binding; measurement: normalised enrichment score
Parent: CDKN1A docking peptide (human); SKACRRLFGPVDS
SKACWRLFGPVDS [R5W]: 0.125
SKAQRRLFGPVDS [C4Q]: 0.758
SKACRRLFGPVMS [D12M]: 0.603
SKACRRLFGPVRS [D12R]: -0.178
SKKCRRLFGPVDS [A3K]: 0.764
SKACRRLEGPVDS [F8E]: -0.654
SKACRRNFGPVDS [L7N]: 0.314
SKACRRLFGPIDS [V11I]: -0.0248
SKACHRLFGPVDS [R5H]: 0.0976
SKACRRLFGPVCS [D12C]: 0.586
SPACRRLFGPVDS [K2P]: 0.224
SKACRRLFGPVPS [D12P]: 0.304
SKACPRLFGPVDS [R5P]: -0.428
SKACRRLFQPVDS [G9Q]: 0.121
SKACRRLFGPDDS [V11D]: 0.816
SKACRRIFGPVDS [L7I]: 0.697
SKACRRLFGGVDS [P10G]: 0.35
SKACRRLFGRVDS [P10R]: 1.15
SKDCRRLFGPVDS [A3D]: 0.0852

Study 2 — technique: protein binding microarray; form: double-stranded DNA, one strand shown; sample: in vitro; tested at: not given; baseline: not given; reading: higher = stronger binding; measurement: E-score
Target: Histone acetyltransferase KAT6A, winged helix 2, GST fusion (KAT6A, Homo sapiens, UniProt Q92794, residues 85-181)
Notes: 8-mer, flanks averaged, mean of 2 arrays, mostly near background
Target sequence (chain): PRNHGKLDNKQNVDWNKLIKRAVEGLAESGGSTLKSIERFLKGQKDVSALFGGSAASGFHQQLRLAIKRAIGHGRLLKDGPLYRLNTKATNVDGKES
GTTGAAAC: 0.123
GGAGGCCA: 0.0327
GCTCTACC: -0.105
TAATATGA: -0.0504
CAATTATC: -0.0765
GAAACTCA: 0.0582
TATTGACA: -0.166
CCCATTCA: -0.096
CGGTAACA: -0.0692
CTGAGCAA: 0.0252
CAAGGGTC: -0.127
CGCCTTAC: -0.0672
GATCTGAC: 0.0472
CAACCTCA: -0.176
TGATACCA: 0.0763
CCATAGAG: -0.0738
CGATTCGA: 0.159
CACAAATA: 0.0887
ATTGTCTG: 0.00874
GTCTGGGA: -0.00957

Study 3 — technique: aptamer microarray, sandwich; form: DNA with 2'F-ANA; sample: in vitro; tested at: 200 nM; added: Cy3 exosite-II aptamer, 400 nM; reading: higher = stronger binding; measurement: mean fluorescence intensity; oligonucleotide: GGTTGGTGTGGTTGG
Target: Prothrombin, mature alpha-thrombin (F2, Homo sapiens, UniProt P00734)
Notes: whole 15-mer aptamer, many near background
2'F-ANA at 1 2 3 4 6 8 10 11 13 14 15: 50.4 a.u.
2'F-ANA at 1 2 3 5 7 11 12 15: 96 a.u.
2'F-ANA at 2 5 6 9 12 13 14 15: 48.7 a.u.
2'F-ANA at 1 3 4 6 10 13 14: 48.4 a.u.
2'F-ANA at 2 3 7 11 13 14: 465 a.u.
2'F-ANA at 5 8 12 13 14: 47.4 a.u.
2'F-ANA at 1 2 4 5 6 8 9 10 11 12 13: 58.9 a.u.
2'F-ANA at 1 2 3 5 6 7 13 14: 60 a.u.
2'F-ANA at 3 4 13 15: 584 a.u.
2'F-ANA at 1 2 10 11 12 15: 65.7 a.u.
2'F-ANA at 2 3 4 7 8 9 10 11 13 15: 221 a.u.
2'F-ANA at 1 2 3 4 5 7 10 12: 47.6 a.u.
2'F-ANA at 1 5 6 9 11 12: 90.6 a.u.
2'F-ANA at 1 4 5 7 8 9 11 14 15: 56.5 a.u.
2'F-ANA at 3 4 6 9 10 12 13 15: 231 a.u.
2'F-ANA at 2 5 6 7 9 10 11 12 13 15: 48.7 a.u.
2'F-ANA at 3 6 8 12 13: 1250 a.u.
2'F-ANA at 1 2 3 4 5 6: 57 a.u.
2'F-ANA at 4 8 9 11 12 13: 353 a.u.
2'F-ANA at 1 2 3 5 7 10 12 13 15: 50.2 a.u.
2'F-ANA at 1 2 5 6 7 8 9 13 15: 51.6 a.u.
2'F-ANA at 2 3 6 8 9 15: 801 a.u.
2'F-ANA at 1 3 4 6 9 11 12 13 14: 68.9 a.u.
2'F-ANA at 4 7 9 12 13 15: 331 a.u.
2'F-ANA at 3 6 7 8 9 12 15: 1240 a.u.

Study 4 — technique: protein-binding microarray; form: double-stranded DNA, one strand shown; sample: in vitro; tested at: 0.8 µM; notes: whole 60-bp probe, no competitor; reading: higher = stronger binding; measurement: fluorescence intensity; all sequences stand within: … GTCTTGATTCGCTTGACGCTGCTG
Target: Centromere-binding protein 1, full length, N-terminal tag (CBF1, Saccharomyces cerevisiae, UniProt P17106, residues 1-351)
Sequence of UniProt P17106 (whole entry, looked up): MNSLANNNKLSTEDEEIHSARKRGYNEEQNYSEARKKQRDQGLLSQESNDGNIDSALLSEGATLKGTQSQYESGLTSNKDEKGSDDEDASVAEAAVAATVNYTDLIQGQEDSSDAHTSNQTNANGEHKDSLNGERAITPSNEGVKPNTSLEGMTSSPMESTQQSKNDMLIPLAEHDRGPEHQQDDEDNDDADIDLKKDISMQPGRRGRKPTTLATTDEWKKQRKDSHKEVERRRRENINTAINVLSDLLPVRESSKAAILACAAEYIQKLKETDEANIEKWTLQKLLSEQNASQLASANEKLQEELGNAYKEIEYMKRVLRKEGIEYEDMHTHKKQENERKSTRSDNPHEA
GAATTTGGACAATTACACGAGATCTTTATTAAATAG: 694 a.u.
GAAAAACTTTTCTTAATGATGATGGCGTCTGTCTAG: 523 a.u.
GAAAAAAGTAGTTGTCACGTATGTGTCAAATATTAG: 577 a.u.
GAACTGAGGAGGGACCTCCACGTGCCAAACGACTAG: 3050 a.u.
TGTACGAAGCTATCGTGGTTGGTTATAGTAGTTAGG: 542 a.u.
GAAAGCAATTCACACGTGAATACGTACAATATCTAG: 2040 a.u.
CTAGACATTCTGGCCAACGTGCATTCGACGGAATTC: 590 a.u.
GAAATCTGTATGAACCACGTGACTTAACATGAATAG: 17800 a.u.
CTAAATGGCACTAATCACCTGCCTTCTGTTGACTTC: 791 a.u.
CTAACGAATGAAAAGCACGTGAACTAACAAACTTTC: 4840 a.u.
CTAAGTACCAAGAATCATATGAGCCTTTTCAGTTTC: 510 a.u.
CTACGACGCCGTAGTCGCGTGCCCTTGCCCTTATTC: 722 a.u.
GAATTATGCTCAAGTCACGAAGCTGTTGCCAAATAG: 598 a.u.
GAAATATTATAAACTGACGTGGAAAGGCAAAAGTAG: 524 a.u.
CTAAACAATATTCATTACATCAGAATGCGAAAATTC: 516 a.u.
GAATGATACTTTGGTGACGTATTCTTTTCTCACTAG: 483 a.u.
CTAGAACTTACAAGAAATATCACGTTGGCGCGCTTC: 965 a.u.
CTAATTTAAAGTCCCATCGTGACGCTCATAATATTC: 649 a.u.
GAATATGAGTACCGTCACGTTTCTTGTTGAAGATAG: 1480 a.u.
GAAAAGTTACGGCACACCGTGATGTACCCGCATTAG: 533 a.u.
CTATCTATGATACATGACGTGAAATGTGCACGGTTC: 641 a.u.
GAAATGACAATGCAGCACGTGGGAGACAAATAGTAG: 5860 a.u.
TGTACGAAGCTATTGAATGTGACTATAGTAGTTAGG: 553 a.u.
GAAATGAAATAATAACATGTGCGGTAAAACAACTAG: 863 a.u.
GAAAGTTCTGTATGGTGCGTCACCTTCTTTTTTTAG: 501 a.u.

Study 5 — technique: RNA Bind-n-Seq; form: RNA; sample: in vitro; tested at: 365 nM; baseline: no-protein control; reading: higher = stronger binding; measurement: RBNS enrichment (R)
Target: RNA binding protein fox-1 homolog 2, RRM domain, GST-SBP tag (RBFOX2, Homo sapiens, UniProt O43251-10, residues 100-194)
Notes: natural RNA segment, single round, ends assumed
All sequences stand within: GGGAGUUCUACAGUCCGACGAUC … UGGAAUUCUCGGGUGCCAA
Target sequence (chain): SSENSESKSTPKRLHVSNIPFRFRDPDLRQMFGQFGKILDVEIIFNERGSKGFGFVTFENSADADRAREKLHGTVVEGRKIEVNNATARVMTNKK
AGAUUAAUUUUUCCAUAAAACCAUUUUGAACCAAUGAACCAGUCAAUAAUUUUAAGGUUCUGUUUUAAAUGUAAGAAUUCCAACUUACAGUCUAUUAAAAUUCAGCCCUA: 0.692
CUCGGGGGUGGUUGUUCUUCAAGCAAGUUCUGCUUGCACUUUUGCAUUUGCCUAACAGACUUUUGCAGAGGCGAUGGCAGAGAGCAGCUGCAGGCAUGGUCCCUGGAGCC: 0.251
AGGCAUUACUCUUCCCUGCCUCACAUCAAGGUGCCAUUCAGGUAGUUGGCUCCCAGCUACUUAACGAUAAAAAUAUCACUUUCGUAUUUGUAUCAGAGAAACUUAAAAAA: 0.583
UGCGGAUUCUGUUUUUGAGCCGUGGACUUGGGUUGUAAAUUUAUUUGUGGGGAGUGCGCUCCAGGAAGAGCCACCAUCCCUGCCCCCGUUUUCCCACCGGGGAGUCUGUA: 0.301
UUUUCUCUUAAGAAAGUGCUUUAGCACCGCUGGCUGGCAUCUUUAAUGCAGGUGGUAAACCUAAUUCCAUAAGCAUGGCCUGCCCGAGCCAGAAGGAAGAAGAGCUUGCU: 0.33
GUUUUGUUAUGUUGAGAUGUUUCUAAAGAAAAGAUUUUAUGUAAUUAUAAGAUGAAGCGUAGUGAAUUGUACAGCUGUUGUAAUAAUGACCUAUUUCUAUAUAAAAUAAA: 1.22
UAAGAUAAAUGAGGGGGAAAAAAACUAAAAAUAUGCUUUUGUCCCAAAUAUCUCAUUUUACAAGGUAGUUUAAAUUGUGUUAAAAUCACUAGCAAGAAGUAUAUAUUUUC: 0.668
UCAUCCUUAGGUUUUCUCAAGAUUUAAGUGAACACAUUUACACAUAUCAAUUUCUUAAAGAACACAAAAUGUUUCCUCCCUAGCAAAACUAUUUAAGAGCCAAUUAAACU: 0.371
UUUUGAGGUGGGGGGAGGGAGGAGGUAUAUUGGAACUCUUCUAACCUCCUUGGGCUAUAUUUUCUCUCCUCGAGUUGCUCCUCAUGGCUGGGCUCAUUUCGGUCCCUUUC: 0.34
GAAGGGCUUUUCUCUACCCUGAAAUGAAGGUAAUCCAAAGGCAUCCAUUUUCUAGGCUUAAAAGAUAUAUUUUUGAUAUAUUUAAUUAUAUUCUCUACACUCCAGCAUUA: 1.4
CUAUUUUGAUAAUACAUAUUAUUUACCCCACUGUAACAUCCUGUAAACUAAAUGCGUUUUUAAGCAAUUUUUAAGACUUGUAAUUACCCUAAAAAUAAGGUUUAUUAAGC: 0.443
AAACCCUCAGGCACCAGCACAGGGCUCUGGGUGACUCAGUAAAACUAACGUUUGUCUCUGACAAGAUCAGCUGUAGGCUCACCGGCCAGAGAAGACCACUGUGAGCAUUU: 0.356

Some of these lines once more (study 5):
AAACCCUCAGGCACCAGCACAGGGCUCUGGGUGACUCAGUAAAACUAACGUUUGUCUCUGACAAGAUCAGCUGUAGGCUCACCGGCCAGAGAAGACCACUGUGAGCAUUU: 0.356
AGGCAUUACUCUUCCCUGCCUCACAUCAAGGUGCCAUUCAGGUAGUUGGCUCCCAGCUACUUAACGAUAAAAAUAUCACUUUCGUAUUUGUAUCAGAGAAACUUAAAAAA: 0.583
CUAUUUUGAUAAUACAUAUUAUUUACCCCACUGUAACAUCCUGUAAACUAAAUGCGUUUUUAAGCAAUUUUUAAGACUUGUAAUUACCCUAAAAAUAAGGUUUAUUAAGC: 0.443
UUUUCUCUUAAGAAAGUGCUUUAGCACCGCUGGCUGGCAUCUUUAAUGCAGGUGGUAAACCUAAUUCCAUAAGCAUGGCCUGCCCGAGCCAGAAGGAAGAAGAGCUUGCU: 0.33
UCAUCCUUAGGUUUUCUCAAGAUUUAAGUGAACACAUUUACACAUAUCAAUUUCUUAAAGAACACAAAAUGUUUCCUCCCUAGCAAAACUAUUUAAGAGCCAAUUAAACU: 0.371
GAAGGGCUUUUCUCUACCCUGAAAUGAAGGUAAUCCAAAGGCAUCCAUUUUCUAGGCUUAAAAGAUAUAUUUUUGAUAUAUUUAAUUAUAUUCUCUACACUCCAGCAUUA: 1.4
GUUUUGUUAUGUUGAGAUGUUUCUAAAGAAAAGAUUUUAUGUAAUUAUAAGAUGAAGCGUAGUGAAUUGUACAGCUGUUGUAAUAAUGACCUAUUUCUAUAUAAAAUAAA: 1.22
AGAUUAAUUUUUCCAUAAAACCAUUUUGAACCAAUGAACCAGUCAAUAAUUUUAAGGUUCUGUUUUAAAUGUAAGAAUUCCAACUUACAGUCUAUUAAAAUUCAGCCCUA: 0.692
CUCGGGGGUGGUUGUUCUUCAAGCAAGUUCUGCUUGCACUUUUGCAUUUGCCUAACAGACUUUUGCAGAGGCGAUGGCAGAGAGCAGCUGCAGGCAUGGUCCCUGGAGCC: 0.251
UAAGAUAAAUGAGGGGGAAAAAAACUAAAAAUAUGCUUUUGUCCCAAAUAUCUCAUUUUACAAGGUAGUUUAAAUUGUGUUAAAAUCACUAGCAAGAAGUAUAUAUUUUC: 0.668
UUUUGAGGUGGGGGGAGGGAGGAGGUAUAUUGGAACUCUUCUAACCUCCUUGGGCUAUAUUUUCUCUCCUCGAGUUGCUCCUCAUGGCUGGGCUCAUUUCGGUCCCUUUC: 0.34
UGCGGAUUCUGUUUUUGAGCCGUGGACUUGGGUUGUAAAUUUAUUUGUGGGGAGUGCGCUCCAGGAAGAGCCACCAUCCCUGCCCCCGUUUUCCCACCGGGGAGUCUGUA: 0.301
